Experimental data pooled from the literature.
± marks the error that the study gave.

Structure (SMILES) | assay | system | conditions | scale | measurement | value
O=C(NC1(C(F)(F)F)CCC1)c1ccccc1 | – | water | 24 h | – | logP | 2.48
Cc1cc(-c2ccc(C(=O)[C@@H]3CCCC[C@H]3C(=O)Nc3cnn4c3C(=O)NCC4)cc2)[nH]n1 | – | human, faeces | oral, 200 mg, 0-144 h | relative to: dose | cumulative recovery of radioactivity | 72.5%
CCCC[C@H](OC(C)=O)c1ccccc1C(=O)O | – | Sprague-Dawley rats, both sexes, whole blood | intravenous, 20 mg/kg single dose | – | AUC(0-t) | 18300 ± 2220 ng·h/mL
O=C([O-])CN1CCN(CC(=O)[O-])CCN(Cc2cccc(C(=O)[O-])n2)CC1.[44Sc+3] | – | mouse, liver | intravenous, 1 h | – | tracer uptake | 0.75 %ID/g
Cc1nc(N)nc2c1C(=O)N[C@@H](c1ccc(F)cc1-c1cccc(O[11CH3])n1)C2 | ex vivo biodistribution | mice, MDA-MB-231 subcutaneous xenograft, spleen | 60 min post-injection, baseline, vehicle pre-treatment | – | SUV | 6.2 ± 0.4
O=S1(=O)CC2CCCCC2CS1 (stereo not shown) | phase solubility, NMR | water | 25 °C, together with: hydroxypropyl-β-cyclodextrin 399 mM | – | solubility | 43.1 mM
O=C1NC2(CC2)COc2ncc(F)cc2[C@H]2COCCN2c2ccn3ncc1c3n2 | bone marrow micronucleus test | NIH mice, male | oral, 200 mg/kg/day, 3 days | – | micronucleus rate | 1.15 ± 0.14 ‰
COC1C=COC2(C)Oc3c(C)c(O)c4c(c3C2=O)C2=NC3(CCN(CC(C)C)CC3)NC2=C(NC(=O)C(C)=CC=CC(C)C(O)C(C)C(O)C(C)C(OC(=O)Nc2cccnn2)C1C)C4=O (stereo not shown) | – | CD-1 mouse female, plasma | intravenous, 5 mg/kg | – | elimination half-life | 2.5 h
COc1cccc(OC)c1-c1cc(C(=O)NC2(C(=O)O)C3CC4CC(C3)CC2C4)nn1-c1ccc(C(=O)NCCNC(=O)[C@H](CCCCNC(=O)[C@H](CC(C)C)NC(=O)C2OC2C(=O)O)NC(=O)CN2CCN(CC(=O)[O-])CCN(CC(=O)[O-])CCN(CC(=O)[O-])CC2)cc1C(C)C.[177Lu+3] (mixture of isomers) | – | mouse, HT-29 xenograft, kidney | 4 h post injection | – | tissue uptake | 8.6 %ID/g
N#C[C@@H]1CC(F)(F)CN1C(=O)CNC(=O)c1ccnc2ccc(OCCCN3CCN(C(=O)CCc4ccc5c(c4)CN4CCN(Cc6cc(CCC(=O)O)ccc6O)CC(=O)[O][Al-]([18F])([O]C(=O)C4)[O]5)CC3)cc12 (stereo partly shown) | radio-TLC | CD-1 mice, plasma | intravenous, 60 min post-injection | – | radiochemical purity | 89.2 ± 4.5%
COc1ccc2c(c1)C(C)(C)C(/C=C/C1=C(Oc3ccc(C(=O)NCCCCOc4cc(CN(Cc5ccccn5)Cc5ccccn5)cc(CN(Cc5ccccn5)Cc5ccccn5)c4)cc3)C(=C/C=C3/N(CCCCS(=O)(=O)[O-])c4ccc(OC)cc4C3(C)C)CCC1)=[N+]2CCCCS(=O)(=O)[O-].O=[N+]([O-])[O-].O=[N+]([O-])[O-].[99Tc+].[C-]#[O+].[C-]#[O+].[C-]#[O+].[Zn+2] | radio-TLC | formulation buffer | 2 h, room temperature | – | intact compound | 98.7%
CC[C@H](C)[C@@H]1NC(=O)[C@H](Cc2ccc(O)cc2)NC(=O)CCCSC[C@@H](C(=O)N(CC(=O)N[C@@H](CC(C)C)C(=O)NCC(N)=O)Cc2ccc(F)cc2)NC(=O)[C@H](CC(N)=O)NC(=O)[C@H](CCC(N)=O)NC1=O | – | human | intranasal, 5 µg single dose | – | severe adverse events | 0%
CC(=O)N([O-])CCCCCNC(=O)CCC(=O)N([O-])CCCCCNC(=O)CCC(=O)N([O-])CCCCCN.[89Zr+4] | radio-TLC | aqueous buffer | 1 d, pH 7.2, 37 °C, 89Zr-labelled complex, together with: CoCl2 10-fold excess | – | intact complex | 97.1 ± 1.3%
O=C(Nc1cnccc1-c1ccc([18F])nc1)c1ccnc(NC(=O)C2CC2)c1 | – | FVB/NJ mice (both sexes), bladder | intravenous, dose not given, 120 min, together with: tariquidar 15 mg/kg i.v. pre-dose | – | SUV | 1.47
O=C([O-])CN1CCN(CC(=O)[O-])CCN(CC(CCCc2ccccc2[N+](=O)[O-])N(CC(=O)[O-])CC(=O)[O-])CC1.[177Lu+3] (stereo not shown) | HPLC | human serum | 279 h, pH 7, 37 °C | – | intact radiolabelled complex | 100%
CN(Cc1ccccc1)C(=O)CN1CCN(CC(=O)[O-])CCN(Cc2cccc(C(=O)[O-])n2)CC1.[18F-].[Sc+3] | – | mouse, brain | intravenous, 1 h | – | tracer uptake | 0.03 %ID/g

Structure (SMILES) | assay | system | conditions | scale | measurement | value
Cc1ncsc1-c1ccc(CNC(=O)[C@@H]2C[C@@H](O)CN2C(=O)[C@@H](NC(=O)COCC(C)(COCCOCCOCCNC(=O)C[C@@H]2N=C(c3ccc(Cl)cc3)c3c(sc(C)c3C)-n3c(C)nnc32)COCCOCCOCCNC(=O)C[C@@H]2N=C(c3ccc(Cl)cc3)c3c(sc(C)c3C)-n3c(C)nnc32)C(C)(C)C)cc1 | – | male C57BL/6 mouse, plasma | intravenous, 5 mg/kg, 4.98 min, single dose | – | concentration | 34900 ng/mL
O=C([O-])CN1CCN(CC(=O)[O-])CCN(CC(=O)[O-])CC1.[44Sc+3] | – | mouse, liver | intravenous, 1 h | – | tracer uptake | 0.21 %ID/g
CCCCN1C(=O)c2cccc3c(NCCCN4CCOCC4)ccc(c23)C1=O | – | acetonitrile | – | – | fluorescence lifetime | 7.1 ns
CC[C@H](C)/C=C/C=C/C=C/C(O)=C/C(=O)C(Cl)(Cl)Cl | – | C57BL/6 mice female, plasma | oral gavage, 25 mg/kg, threshold 1 µM | – | time plasma level above threshold | 15 min
C=CC(=O)Nc1cc(Nc2nccc(-c3cn(C)c4ccccc34)n2)c(OC)cc1N(C)CCNC | storage stability | human dried blood spot | 30 d, -80 °C, LLOQ level | – | recovery | 98.2%
CCC(CC)CNC(=N)NC(=N)NCCCCCCNC(=N)NC(=N)NCC(CC)CC | metabolic stability | rat, hepatocytes | 1 µM | – | scaled CLint | 50.3 mL/min/kg
C/C(N)=N/C(=N\S(=O)(=O)c1ccc(C(F)(F)F)cc1)N1C[C@H](c2ccccc2)C(c2ccc(Cl)cc2)=N1 | – | C57BL/6 mouse, heart | intravenous, 10 mg/kg | – | AUC(0-inf) | 25000 ng·h/mL
O=C1CCC(N2Cc3cc(C(=O)O)c(F)cc3C2=O)C(=O)N1 (stereo not shown) | – | male CD-1 mouse, plasma | intravenous, 1 mg/kg, 1.02 min | – | concentration | 3670 ng/mL
CN([O-])C(=O)CN1CCN(CC(=O)N(C)[O-])CCN(Cc2ccccn2)CC1.[89Zr+4] | radio-TLC | human serum | 3 days, run 2 | – | intact complex | 100%
O=C(c1ccccc1)N1C(c2ccc(OCC3CCN(CCCF)C3)cc2)c2ccc(O)cc2CC12CC2 (stereo not shown) | – | C57BL/6J mouse, plasma | intraperitoneal, 25 mg/kg, group mean | – | AUC(0-inf) | 8350 ng·h/mL
CN(Cc1ccccc1)C(=O)CN1CCN(CC(=O)[O-])CCN(CC(=O)N(C)Cc2ccccc2)CC1.[44Sc+3] | – | BALB/c mouse, urine | intravenous, 1 h | – | uptake | 153 ± 104 %ID/g
CC[C@H](C)[C@H](NC(=O)[C@H](CCC(N)=O)NC(=O)[C@@H](NC(=O)[C@@H]1CCCN1[C@@H]1CN(C(=O)[C@H](CCCCN)NC(=O)[C@H](CC(N)=O)NC(=O)[C@@H](NC(=O)[C@@H](NC(=O)[C@H](CCC(N)=O)NC(=O)[C@@H](N)C(C)C)[C@@H](C)CC)[C@@H](C)CC)CC[C@H]1NS(=O)(=O)c1ccc(C)cc1)C(C)C)C(=O)N[C@H](C(=O)N[C@@H](Cc1ccc(O)cc1)C(=O)N[C@@H](CCCCN)C(N)=O)C(C)C | CD spectroscopy | 20 mM phosphate buffer | 125 µM, 20 °C | – | random coil content | 60.4%
COc1cccc(OC)c1-c1cc(C(=O)NC2(C(=O)O)C3CC4CC(C3)CC2C4)nn1-c1ccc(C(=O)N(C)CCOCCN(C)C(=O)[C@H](CCCCNC(=O)[C@H](CC(C)C)NC(=O)C2OC2C(=O)O)NC(=O)CN2CCN(CC(=O)[O-])CCN(CC(=O)[O-])CCN(CC(=O)[O-])CC2)cc1C(C)C.[177Lu+3] (mixture of isomers) | – | mouse, HT-29 xenograft | 168 h post injection, biodistribution | relative to: tumour over muscle uptake | tumour-to-muscle ratio | 1.91
CN(Cc1ccccc1)C(=O)CN1CCN(CC(=O)[O-])CCN(CC(=O)[O-])CC1.[18F-].[Sc+3] | – | mouse, heart | intravenous, 1 h | – | tracer uptake | 0.11 %ID/g
O=c1c2ccccc2[se]n1CCCCCCn1[se]c2ccccc2c1=O | shake-flask, RP-HPLC | dichloromethane | 24 h, 25 °C | – | solubility | 3170 ± 160 µg/mL

For quick reference, copied from above:
Structure (SMILES) | assay | system | conditions | scale | measurement | value
O=C(c1ccccc1)N1C(c2ccc(OCC3CCN(CCCF)C3)cc2)c2ccc(O)cc2CC12CC2 (stereo not shown) | – | C57BL/6J mouse, plasma | intraperitoneal, 25 mg/kg, group mean | – | AUC(0-inf) | 8350 ng·h/mL
CN(Cc1ccccc1)C(=O)CN1CCN(CC(=O)[O-])CCN(CC(=O)N(C)Cc2ccccc2)CC1.[44Sc+3] | – | BALB/c mouse, urine | intravenous, 1 h | – | uptake | 153 ± 104 %ID/g
O=C(Nc1cnccc1-c1ccc([18F])nc1)c1ccnc(NC(=O)C2CC2)c1 | – | FVB/NJ mice (both sexes), bladder | intravenous, dose not given, 120 min, together with: tariquidar 15 mg/kg i.v. pre-dose | – | SUV | 1.47
COc1cccc(OC)c1-c1cc(C(=O)NC2(C(=O)O)C3CC4CC(C3)CC2C4)nn1-c1ccc(C(=O)N(C)CCOCCN(C)C(=O)[C@H](CCCCNC(=O)[C@H](CC(C)C)NC(=O)C2OC2C(=O)O)NC(=O)CN2CCN(CC(=O)[O-])CCN(CC(=O)[O-])CCN(CC(=O)[O-])CC2)cc1C(C)C.[177Lu+3] (mixture of isomers) | – | mouse, HT-29 xenograft | 168 h post injection, biodistribution | relative to: tumour over muscle uptake | tumour-to-muscle ratio | 1.91
